Assay results pooled from the literature.
Each line is one published result; not all experiments were run side by side. Numbers after ± are the reported error.

Compound	cell line	effect on	technique	time	with	IC50
Cc1ccc(-n2nc3c(=O)n(CCCC(=O)NCC(C)c4ccccc4)nc(C)c3c2C)cc1 (stereo not drawn)	MIA PaCa-2	cell growth or viability	CCK-8	72 h	–	> 100 µM
C#CCSc1nc(Sc2nnnn2C)c2nnn(Cc3ccccc3)c2n1	U-937	cell growth or viability	MTS	6 days	–	2.31 µM
CNC(=S)N/N=C/c1ccc(OCc2ccccc2)cc1	IMR-32	cell growth or viability	MTT	24 h	–	14.8 µg/mL
C[C@@H](N)[C@H](O)CCCCCCCC(=O)CCCCCCCCCCCCCC[C@@H](O[C@@H]1O[C@H](CO)[C@H](O)[C@H](O)[C@H]1O)[C@H](N)CO	MCF-12A	cell growth or viability	resazurin	96 h	–	14 µM
[CH3][Ti+2][O]C(=O)c1ccc([S][Au][PH](c2ccccc2)(c2ccccc2)c2ccccc2)cc1.c1cc[cH-]c1.c1cc[cH-]c1	renal proximal tubule cells	cytotoxicity	XTT	72 h	–	2.67 ± 0.12 µM
C[C@H]1[C@H](OC(=O)CCC(=O)OCCc2ccc(O)cc2)O[C@@H]2O[C@@]3(C)CC[C@H]4[C@H](C)CC[C@@H]1[C@@]24OO3	SK-MEL3	cell viability	MTT	24 h	deferoxamine 20 µM, 1 h before	10.5 ± 2.3 µM
Cc1nc([C@H](NC(=O)c2ccc(-c3ccc(Cl)cc3)[nH]2)[C@H]2CCCCN2)sc1CO	MAGI-CCR5 and HL2/3 cells	HIV-1 Env-mediated cell fusion	beta-galactosidase	–	–	7.6 µM
CCC(C)C1OC(=O)C(NC(=O)c2cccc(NC=O)c2O)C(C)OC(=O)C(C(C)CC)OC(=O)C(C)(C)C(=O)C(Cc2ccccc2)OC1=O (stereo not drawn)	NCM460	cell growth or viability	CCK-8	72 h	–	> 50 µM
O=C(C[P+]([Au-][Cl])(c1ccccc1)c1ccccc1)[O][Ti+2][O]C(=O)C[P+]([Au-][Cl])(c1ccccc1)c1ccccc1.c1cc[cH-]c1.c1cc[cH-]c1	UO-31	cell viability	XTT	24 h	–	6.3 µM
CCOC(=O)[C@@H]1Cc2c(cc([N+](=O)[O-])cc2[N+](=O)[O-])[C@@H](O)[C@@]12C(=O)Nc1ccc(Cl)cc12 (single isomer, unassigned)	U-251	cell growth or viability	MTT	24 h	–	> 50 µM
CC1(C)OB(c2ccc(COC(=O)N(Cc3cccc(CN4CCCCC4)c3)[c-]3cccc3)cc2)OC1(C)C.[Fe+2].c1cc[cH-]c1	BL2	cell growth or viability	MTT	48 h	–	3.9 µM
N[C@H](CC[As](O)O)C(=O)O	HCC1569	cell viability	–	–	–	3 µM
C[C@H]1O[C@@H](O[C@H]2CC[C@@]3(C)[C@H](CC[C@@H]4[C@@H]3C[C@@H](O)[C@]3(C)[C@@H](C5=CC(=O)OC5)CC[C@]43O)C2)C[C@H](O)[C@@H]1O[C@@H]1O[C@H](CO)[C@@H](O)[C@H](O)[C@H]1O	BEAS-2B	cell growth or viability	MTT	48 h	–	0.25 µM
CCCC1(CN2c3ccccc3Sc3ccccc32)CCN(CC)C1 (stereo not drawn)	Vero 76	cytotoxicity	–	–	–	20.7 ± 13.7 µM
NC1CCCCC1N.O=C1[O][Pt]([O]C(=O)c2ccc(P(c3ccccc3)c3ccccc3)cc2)([O]C(=O)c2ccc(P(c3ccccc3)c3ccccc3)cc2)[O]C1=O.[Cl][Au].[Cl][Au]	T24	cell growth or viability	resazurin	72 h	–	5.42 µM

For quick reference, copied from above:
Compound	cell line	effect on	technique	time	with	IC50
CCOC(=O)[C@@H]1Cc2c(cc([N+](=O)[O-])cc2[N+](=O)[O-])[C@@H](O)[C@@]12C(=O)Nc1ccc(Cl)cc12 (single isomer, unassigned)	U-251	cell growth or viability	MTT	24 h	–	> 50 µM
[CH3][Ti+2][O]C(=O)c1ccc([S][Au][PH](c2ccccc2)(c2ccccc2)c2ccccc2)cc1.c1cc[cH-]c1.c1cc[cH-]c1	renal proximal tubule cells	cytotoxicity	XTT	72 h	–	2.67 ± 0.12 µM
